Results from different studies.
A part holds a random share of what one study measured. Substitutions count along the parent as printed.
UniProt Q9ZSY8, sequence (whole entry, looked up): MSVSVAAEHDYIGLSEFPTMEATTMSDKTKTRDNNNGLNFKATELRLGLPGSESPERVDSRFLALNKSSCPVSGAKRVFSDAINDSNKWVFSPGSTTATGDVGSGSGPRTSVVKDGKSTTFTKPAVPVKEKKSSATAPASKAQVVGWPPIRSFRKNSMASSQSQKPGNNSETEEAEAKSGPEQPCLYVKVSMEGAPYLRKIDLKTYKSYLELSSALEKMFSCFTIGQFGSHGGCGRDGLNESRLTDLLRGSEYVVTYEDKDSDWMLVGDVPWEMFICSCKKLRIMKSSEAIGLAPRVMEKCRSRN
UniProt O23661, sequence (whole entry, looked up): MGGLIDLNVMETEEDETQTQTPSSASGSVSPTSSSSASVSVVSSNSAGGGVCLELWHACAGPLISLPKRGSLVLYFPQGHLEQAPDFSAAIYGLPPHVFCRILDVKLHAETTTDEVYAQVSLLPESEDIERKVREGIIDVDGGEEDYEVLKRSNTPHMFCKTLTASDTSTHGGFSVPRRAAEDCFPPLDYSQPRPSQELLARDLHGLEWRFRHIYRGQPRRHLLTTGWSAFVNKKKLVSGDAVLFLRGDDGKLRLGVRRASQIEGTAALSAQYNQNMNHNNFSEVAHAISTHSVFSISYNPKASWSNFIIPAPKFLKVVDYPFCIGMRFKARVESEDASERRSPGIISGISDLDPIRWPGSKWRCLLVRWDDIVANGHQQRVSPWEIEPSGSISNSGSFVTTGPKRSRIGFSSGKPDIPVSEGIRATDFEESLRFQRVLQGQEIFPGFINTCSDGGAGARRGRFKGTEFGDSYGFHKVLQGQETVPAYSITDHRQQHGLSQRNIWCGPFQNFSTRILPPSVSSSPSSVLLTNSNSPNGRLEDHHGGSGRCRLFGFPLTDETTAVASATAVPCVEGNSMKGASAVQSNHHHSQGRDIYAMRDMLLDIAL

Series 1
Target: ABI1, truncated, D143A, DHFR fusion (Arabidopsis thaliana)
Technique: DHFR PCA, deep sequencing
Medium: yeast
Notes: methotrexate growth selection, single substitutions
With: (+)-ABA 710 µM
Reference: wild-type fitted maximum
Reading: higher = stronger binding
Starting sequence: PYL1, truncated, DHFR fusion (Arabidopsis thaliana); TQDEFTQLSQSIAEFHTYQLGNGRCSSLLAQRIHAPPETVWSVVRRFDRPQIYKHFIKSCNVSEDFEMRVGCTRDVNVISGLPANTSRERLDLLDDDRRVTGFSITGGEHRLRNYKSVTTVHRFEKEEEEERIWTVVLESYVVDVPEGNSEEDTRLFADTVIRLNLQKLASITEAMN
Change | relative binding score [%]
F5L | 111
N165S | 59.3
R163H | 91.7
M176F | 89.4
F56L | 102
R111F | 69.6
Q19E | 105
F66N | 87.6
L93Y | 113

Series 2
Target: CCNE2, cyclin fold, Cln2 fusion (human)
Technique: yeast growth competition, sequencing
Medium: yeast
Notes: weak parent motif
Reference: not given
Reading: higher = stronger binding
Starting sequence: DBF4B docking peptide (human); LGYLYLLLTQSLW; partner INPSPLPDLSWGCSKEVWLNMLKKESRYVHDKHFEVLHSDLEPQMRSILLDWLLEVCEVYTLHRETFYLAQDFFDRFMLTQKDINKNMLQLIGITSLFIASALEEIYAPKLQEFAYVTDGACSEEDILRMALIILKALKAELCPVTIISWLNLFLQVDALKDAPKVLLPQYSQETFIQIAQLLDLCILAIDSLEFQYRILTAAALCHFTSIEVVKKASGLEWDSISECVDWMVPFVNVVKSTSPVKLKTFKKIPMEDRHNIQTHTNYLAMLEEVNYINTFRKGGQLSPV
Change | normalised enrichment score
G2A | 0.725
T9A | 0.753
L7A | 0.627
L12A | 0.77
W13A | 0.532
Y3A | 0.665

Series 3
Target: RING finger protein unkempt homolog, zinc fingers 1-6, GST-SBP tag (UNK, Homo sapiens, UniProt Q9C0B0, residues 30-357)
Technique: RNA Bind-n-Seq
Molecule type: RNA
Medium: in vitro
Concentration: not given
Notes: RNA with constant flanks, human-mouse chimeric sites, ends assumed
Reference: input RNA pool
Reading: higher = stronger binding
Shared flanks, not repeated: GGGAGUUCUACAGUCCGACGAUC … CAACAGAGGAUUGAGCAUCA
Construct (chain): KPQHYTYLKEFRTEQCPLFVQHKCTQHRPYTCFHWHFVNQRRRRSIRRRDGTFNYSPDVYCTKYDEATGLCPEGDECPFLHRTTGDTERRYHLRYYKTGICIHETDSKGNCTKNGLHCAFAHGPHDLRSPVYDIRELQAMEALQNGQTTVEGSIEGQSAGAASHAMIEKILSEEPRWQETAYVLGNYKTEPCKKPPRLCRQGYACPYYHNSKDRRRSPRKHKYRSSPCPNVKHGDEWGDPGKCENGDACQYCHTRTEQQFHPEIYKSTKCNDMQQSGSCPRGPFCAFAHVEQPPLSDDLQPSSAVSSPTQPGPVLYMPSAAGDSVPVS
Sequence | bound/input enrichment [ratio]
AACAGAUUGUCUUUAAGCAUUCCAAGCGAGAAUGCUGGGGUGAUCAUUGUUGCCCAUAUAUAGUAAUACUGAGCUUUAAUGCUGUUCAUCCUUGAUGCUUUCCUUCACUCCAGAAUUGUU | 0.48
GGCCUGGGACCGUCCUGGGCUAGUACAAUAGCGGCAGUGGAGGCUCAGAGAGGAAAGUUUGUUAGUGGAGGCAGUGGUAGAGGCCGUCAUGUACGGUCCUUUACUCGAUAGAUGUGUUCU | 0.627
GAAAGAGAACUAAAGCAACUAAUAGAGAAGAGGAUUGGCAAAGAGAAUUUCAUAGAGAAACUAGGAUUUAUUAGCAAACAUGAGUUAUAUUCCAGAGCGUCUCAGAAAACCCCAGCCAAC | 4.39
CACAGAGGAGAUCUGCUGUUCCUCACGAAUUUCCGGGAAGACCCAAUCAGAGCUGGUGAAAUAGUUGUUUUUAAGGUUGAAGGAAGAGACAUUCCAAUAGUUCACAGAGUAAUCAAGGUU | 1.34
UAAGUUAAGCUUUUAAUCUUUGUAAAUUCUUAACAUUUUUAUAUUGCCAUGUUUAUUUUGUUUGGGUAAUUUGGUUCAUACAUGGCCUAGCUAAGGUAAUGAACAUCUUUUUCAGUAAUU | 0.497
CCAAUUGUGGAGCAGUACUUGAAGACAAAGAAAAAUUCUAAUAAUUUAAUCAUGAAAUACAUUAGCUGCCGGCUGGUGACACUCAUCAUUAUACUGUUAGCGUGUAUCUACCUGGGCUAU | 0.439
GUGCCCUUCUCGCUGCUGCGGAGCCCGAGCUGGGAACCAUUCCGGGACGACUGGUACGCACACAGCCGCCUCUUCGAUCAAGCUUUCGGGGUGCCCCGGUUGCCCGAUGAGUGGUCGCAG | 0.0904
UCUUUAAAAAAAAAAUUACCUUUUCUGACAGUGCUUUCCCUCCCAUAGAUCCACGUUCACACUAGAAGGCCAAAACUUUUGCACGGAGCUCAAACAUCUGAUGAAGAAAGAUUUCUGAGA | 2.56
CUGGCCUGGCCCUCCCCAGGGGCCUCCUUUCGUAUAGUAACUGUCAGUGCAUCAGAUACUUUCAGCUGCAACUCCCUACUGGGUGGGGCACCCAUUUCAGGCAGAAGGUUUUGGUACCCU | 0.368
AGUGUGCAGGAAUUCAUGACCUUCACGAGUCAACUGAUUGUGGAACGCUCGGGGAAAGGCAGCAGAGCUUCUGUCAAAGAACAAGAGUAUCUGUGCCAUGUCUACGUCCGGAGCGACAGU | 0.0509
AUGGAACAUUUCGAUGCGUCACUCAGUACCUAUUUCAAGGCAUUGCUGGGCCCCCGAGAUACAAGAGUCAAAGGAUGGUUCCUCCUGGACAAUUACAUCCCUACGUUUGUCUGUUCUGUU | 0.101

Series 4
Target: Cyclic AMP-dependent transcription factor ATF-1, full length (ATF1, Homo sapiens, UniProt P18846, residues 1-271)
Technique: protein-binding microarray
Molecule type: hairpin DNA
Medium: in vitro
Concentration: not given
Notes: whole hairpin DNA, median over replicate spots
Reference: not given
Reading: higher = stronger binding
Shared flanks, not repeated: GAGGCCG … CGGCCTCACACTC
Residues (chain): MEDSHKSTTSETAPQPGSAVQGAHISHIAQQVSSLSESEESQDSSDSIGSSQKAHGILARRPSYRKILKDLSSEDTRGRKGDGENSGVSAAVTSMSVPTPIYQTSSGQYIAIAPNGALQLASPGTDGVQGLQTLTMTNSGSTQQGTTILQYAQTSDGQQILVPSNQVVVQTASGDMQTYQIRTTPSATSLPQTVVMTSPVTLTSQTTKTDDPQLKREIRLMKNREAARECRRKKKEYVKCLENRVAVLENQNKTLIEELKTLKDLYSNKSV
Sequence | median fluorescence [a.u.]
ACGACGTTGTGCCTCCTGGCACAACGTCGT (5mC at 9 29 35) | 4510
ACGGCGTCGTGCCTCCTGGCACGACGCCGT (5mC at 9 15 29 35) | 3520
GATGACGTCGGCCTCCTGGCCGACGTCATC (5mC at 28) | 12500
ACGACGTCCGGCCTCCTGGCCGGACGTCGT (5mC at 9 15 35) | 3400
GATGGCGTCAGCCTCCTGGCTGACGCCATC (5mC at 33) | 10600
ACGACTTCGTGCCTCCTGGCACGAAGTCGT (5mC at 9 15 29 35) | 3170
GATTACGTCAGCCTCCTGGCTGACGTAATC | 6930
GATGACTTCAGCCTCCTGGCTGAAGTCATC | 3200
GCTGACGCCAGCCTCCTGGCTGGCGTCAGC (5mC at 15) | 6870
ACGACGCCGTGCCTCCTGGCACGGCGTCGT (5mC at 9 15 29 35) | 3940
GATGACCGCAGCCTCCTGGCTGCGGTCATC | 3680
ACGACGCCGTGCCTCCTGGCACGGCGTCGT (5mC at 9 14 15 29 35) | 4510
ACGACGTCGAGCCTCCTGGCTCGACGTCGT (5mC at 9 15 29 35) | 3860

Series 5
Target: Ras GTPase-activating protein-binding protein 1, C-terminal RGG region (G3BP1, Homo sapiens, UniProt Q13283)
UniProt Q13283, sequence (whole entry, looked up): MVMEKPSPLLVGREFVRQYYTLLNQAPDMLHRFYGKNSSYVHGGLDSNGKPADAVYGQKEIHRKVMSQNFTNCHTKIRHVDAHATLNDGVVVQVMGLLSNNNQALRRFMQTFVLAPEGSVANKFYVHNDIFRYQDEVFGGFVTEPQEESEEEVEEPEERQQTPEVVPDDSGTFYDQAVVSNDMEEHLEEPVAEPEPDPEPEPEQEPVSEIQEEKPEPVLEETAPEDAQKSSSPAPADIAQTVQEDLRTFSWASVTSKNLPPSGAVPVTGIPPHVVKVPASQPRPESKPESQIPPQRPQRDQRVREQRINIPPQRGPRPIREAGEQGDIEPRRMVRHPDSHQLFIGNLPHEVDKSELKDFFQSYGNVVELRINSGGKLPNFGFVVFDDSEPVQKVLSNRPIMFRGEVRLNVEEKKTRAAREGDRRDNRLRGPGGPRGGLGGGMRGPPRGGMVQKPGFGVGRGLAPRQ
Technique: RNA Bind-n-Seq
Molecule type: RNA
Medium: in vitro
Concentration: 1 µM
Notes: whole 134-nt RNA, ends assumed
With: 150 mM KCl
Reference: input library
Reading: higher = stronger binding
Shared flanks, not repeated: GGGAGUUCUACAGUCCGACGAUC … UGGAAUUCUCGGGUGUCAAGG
Sequence | log2 enrichment
CCUGUGCUACACAUCGUAUGUACCGAAUCGGGGUUUUUUUGGGGAAAAAGGGGUUUGGGGAAAGUAUUAUGUUACGCCGUUCGGAUCUGC | 0.427
ACCAUGCAGGUGGGCAUCUUUGGGAAGUGGGGCAAGGGGGGGAUAGGGAGGGGGGUAACACAAAGGGAACAGGUGGUCCCAGGUCGUUUC | -1.18
UUAAAGAAGAGGGUGUGCGGGACGUCCUUAAGGAUGUACUGCUCCCAUGGUACAAUGCCUAUCGCUUCUUAAUCCAGAACGUUCUGAGGC | -1.68
GUCCUGUGCUACACAUCGUAUGUACCGAAUCGGGGCCCCCGGGCCCCCGGCCCCCGGGAAAGUAUUAUGUUACGCCGUUCGGAUCUGCAC | -1.04
UCCUGUGCUACACAUCGUAUGUACCGAAUCGGGGUUUGGGGAAAAAAAGGGGUUUGGGGAAAGUAUUAUGUUACGCCGUUCGGAUCUGCA | 1.95
AAGUCCUGUGCUACACAUCGUAUGUACCGAAUCGGGUGGGUUUUUGGGAAAAAGGGAAAGUAUUAUGUUACGCCGUUCGGAUCUGCACUU | -0.148
ACCAUGCAGGUGGGCAUCUUUGGGAAGUGGGGCAAGGGGGGGAUAGGGAGGGGGGUAACACUUUGUGAACAGGUGGUCCCAGGUCGUUUC | 2.19
UCAAGUCCUGUGCUACACAUCGUAUGUACCGAAUCGGGGCCGGGGCCGGCCGGGGAAAGUAUUAUGUUACGCCGUUCGGAUCUGCACUUC | -1.88
AGUCCUGUGCUACACAUCGUAUGUACCGAAUCGGGAAAAGGAAAAGGGGAAAAGGGGAAAGUAUUAUGUUACGCCGUUCGGAUCUGCACU | -0.591
ACCAUGCAGGUGGGCAUCUUUGGGAAGUGGGGCAAGGGGGGGAUAGGGAGGGGGGUAACACUUUGGGAACAGAAAGUCCCAGGUCGUUUC | -0.935
CUCAAGUCCUGUGCUACACAUCGUAUGUACCGAAUCGGCGGGGCGGGGCGGGGAAAGUAUUAUGUUACGCCGUUCGGAUCUGCACUUCCA | 0.738
UCCUCAAGUCCUGUGCUACACAUCGUAUGUACCGAAUCGGGGAGGGAGGAGGAAAGUAUUAUGUUACGCCGUUCGGAUCUGCACUUCCAG | -0.485
UCCUCAAGUCCUGUGCUACACAUCGUAUGUACCGAAUCGGUGGUGGUUUGGAAAGUAUUAUGUUACGCCGUUCGGAUCUGCACUUCCAGC | -0.556
GCAGGAAGUAAAAACAAAUGGAAAUGGUUCGGAUAGUGGCAGGGGUGGGGGUUGCUAAGGAAAGGGUGGGAUGGGAGUGGGUAAAGAGUU | 1.86

Mixed results
Partner: ARF18 482-602 (Arabidopsis thaliana, UniProt Q9C5W9)
Technique: two-hybrid
Reference: out of 4 tests
Reading: higher = firmer interaction
One construct used (chain): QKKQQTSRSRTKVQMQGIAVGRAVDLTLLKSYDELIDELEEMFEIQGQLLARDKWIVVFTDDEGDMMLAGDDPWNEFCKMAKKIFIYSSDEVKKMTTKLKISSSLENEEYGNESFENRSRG
Substance | positive tests
ETT (Arabidopsis thaliana, UniProt O23661) | 0
IAA27 (Arabidopsis thaliana, UniProt Q9ZSY8) | 1

Repeated from above (series 4):
Sequence | median fluorescence [a.u.]
ACGACGTTGTGCCTCCTGGCACAACGTCGT (5mC at 9 29 35) | 4510
ACGGCGTCGTGCCTCCTGGCACGACGCCGT (5mC at 9 15 29 35) | 3520
GATGACGTCGGCCTCCTGGCCGACGTCATC (5mC at 28) | 12500
ACGACGTCCGGCCTCCTGGCCGGACGTCGT (5mC at 9 15 35) | 3400
GATGGCGTCAGCCTCCTGGCTGACGCCATC (5mC at 33) | 10600
ACGACTTCGTGCCTCCTGGCACGAAGTCGT (5mC at 9 15 29 35) | 3170
GATTACGTCAGCCTCCTGGCTGACGTAATC | 6930
